Measurements of several laboratories.
Parts stem from different laboratories: compare values within a part only. Substitutions count along the parent as printed.

Block 1
Target: Sal-like protein 4, full length isoform A (SALL4, Homo sapiens, UniProt Q9UJQ4, residues 1-1053)
Chain of UniProt Q9UJQ4 (whole entry, looked up): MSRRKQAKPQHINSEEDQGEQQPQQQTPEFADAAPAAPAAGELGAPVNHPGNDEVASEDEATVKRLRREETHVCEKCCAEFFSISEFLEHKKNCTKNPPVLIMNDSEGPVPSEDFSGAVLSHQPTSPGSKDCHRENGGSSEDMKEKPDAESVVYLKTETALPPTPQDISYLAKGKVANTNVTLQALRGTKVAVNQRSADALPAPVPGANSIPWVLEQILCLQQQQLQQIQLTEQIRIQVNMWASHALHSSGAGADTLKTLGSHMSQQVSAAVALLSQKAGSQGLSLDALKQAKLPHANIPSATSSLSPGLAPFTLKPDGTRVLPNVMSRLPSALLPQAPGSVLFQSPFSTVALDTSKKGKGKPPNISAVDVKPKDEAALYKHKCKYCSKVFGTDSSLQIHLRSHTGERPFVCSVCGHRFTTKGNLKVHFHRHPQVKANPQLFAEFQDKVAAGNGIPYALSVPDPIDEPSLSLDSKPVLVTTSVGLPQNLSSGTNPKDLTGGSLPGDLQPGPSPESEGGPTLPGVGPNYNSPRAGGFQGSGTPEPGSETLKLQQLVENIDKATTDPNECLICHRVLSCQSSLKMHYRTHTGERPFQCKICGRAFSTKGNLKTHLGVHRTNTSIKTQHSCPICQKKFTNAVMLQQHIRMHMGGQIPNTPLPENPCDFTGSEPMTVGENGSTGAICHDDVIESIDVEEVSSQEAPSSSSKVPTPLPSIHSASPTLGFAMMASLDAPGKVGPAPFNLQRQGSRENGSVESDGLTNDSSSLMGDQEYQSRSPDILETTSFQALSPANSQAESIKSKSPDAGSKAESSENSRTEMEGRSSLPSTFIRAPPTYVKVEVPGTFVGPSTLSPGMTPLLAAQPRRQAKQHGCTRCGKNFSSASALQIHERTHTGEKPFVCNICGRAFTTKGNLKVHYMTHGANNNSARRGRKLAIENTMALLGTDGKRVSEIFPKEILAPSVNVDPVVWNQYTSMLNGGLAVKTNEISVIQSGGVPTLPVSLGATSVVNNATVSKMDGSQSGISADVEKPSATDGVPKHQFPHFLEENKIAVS
Method: universal PBM
Molecule type: double-stranded DNA, one strand shown
Sample: in vitro
Concentration: 600 nM
Notes: 8-mer, flanks averaged, mean of replicates
Direction: higher = stronger binding
`CTATGGTC` has an E-score of 0.00251.
The E-score of `CAGGCTCA` is reported as -0.183.
`GATGACCC` gave an E-score of -0.0831.
The E-score of `CAGCCTGA` is reported as -0.13.
`AGCCAAAC` has an E-score of -0.0798.
The E-score of `AAGTCCAC` is reported as -0.172.
For `AGCCGGAT`, the E-score was -0.103.
With `GCCGGCGC` the E-score was -0.27.
For `CCCATTGC`, the E-score was -0.0918.
With `CGAGGAGC` the E-score was -0.32.
With `AGAGACAA` the E-score was 0.0661.
The E-score of `CGCGTTAG` is reported as 0.0468.
With `CAATCAGC` the E-score was -0.0926.
`ATCCCGGA` has an E-score of -0.169.

Block 2
Target: ABI1, truncated, D143A, DHFR fusion (Arabidopsis thaliana)
Method: DHFR PCA, deep sequencing
Sample: yeast
Notes: methotrexate growth selection, single substitutions
With: (+)-ABA 200 µM
Baseline: wild-type fitted maximum
Direction: higher = stronger binding
Starting sequence: PYL1, truncated, DHFR fusion (Arabidopsis thaliana); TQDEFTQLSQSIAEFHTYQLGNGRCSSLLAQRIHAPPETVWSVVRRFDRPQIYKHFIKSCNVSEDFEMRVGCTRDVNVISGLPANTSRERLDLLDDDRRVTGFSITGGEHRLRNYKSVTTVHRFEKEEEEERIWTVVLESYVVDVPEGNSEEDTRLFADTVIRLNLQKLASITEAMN
`A158L` — result for “relative binding score”: 101%.
Under “relative binding score”, `S87P` is recorded as 27%.
Under “relative binding score”, `Y141E` is recorded as 7.61%.
`D153R`: “relative binding score” 2.87%.
`N165G` — result for “relative binding score”: 18.7%.
`V43Q`: “relative binding score” 70.9%.
`R132G`: “relative binding score” 119%.
`Y18L` — result for “relative binding score”: 82.9%.
For `G23S`, “relative binding score” read 95.5%.
Under “relative binding score”, `V40H` is recorded as 26.9%.
`L29S`: “relative binding score” 77.9%.
Under “relative binding score”, `T86V` is recorded as 92.4%.

Block 3
Target: Histone acetyltransferase KAT6A, both winged helices, GST fusion (KAT6A, Homo sapiens, UniProt Q92794, residues 1-181)
Method: protein binding microarray
Molecule type: double-stranded DNA, one strand shown
Sample: in vitro
Concentration: not given
Notes: 8-mer, flanks averaged, mean of 2 arrays, mostly near background
Baseline: not given
Direction: higher = stronger binding
Construct (chain): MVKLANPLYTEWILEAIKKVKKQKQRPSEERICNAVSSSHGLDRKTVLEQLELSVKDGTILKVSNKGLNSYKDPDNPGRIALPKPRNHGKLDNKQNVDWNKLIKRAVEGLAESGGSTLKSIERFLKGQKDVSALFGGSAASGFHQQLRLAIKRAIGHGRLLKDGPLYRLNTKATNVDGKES
With `CTCTTAGA` the E-score was -0.181.
For `AGGAAGCA`, the E-score was -0.222.
With `CGACTGGC` the E-score was -0.0228.
With `GCAAGTCC` the E-score was -0.0484.
`AGGTGGGC` has an E-score of -0.167.
The E-score of `GAGAGGAA` is reported as -0.281.
`CCATTCCA` has an E-score of -0.0851.
For `CTAGAGAA`, the E-score was -0.0754.
With `GGTCGATA` the E-score was -0.0231.
With `AGTTACAC` the E-score was 0.00722.

Further values, each from its own experiment
For `PhoQ, residues 284 288 289 292 302 303 SCCLKL`, the fold induction was 0.303 (PhoP, residues 12 14 15 18 19 LHHSG (Escherichia coli, UniProt P23836); Sort-seq, refers to: YFP reporter; E. coli; PhoQ-PhoP variant library, with: 10 µM Mg2+; baseline: high Mg2+ state, higher = stronger signaling).

Repeated from above (block 2):
Under “relative binding score”, `T86V` is recorded as 92.4%.
`R132G`: “relative binding score” 119%.
